Measured values of several laboratories.
Every numbered part comes from another study and shows a few of its results, in no order.

Sample 1 — method: competition protein-binding microarray; molecule type: double-stranded DNA, one strand shown; medium: in vitro; tested at: 2 µM; with: Cbf1 competitor, 0.05 µM; reading: higher = stronger binding
Target: Phosphate system positive regulatory protein PHO4, full length, GST-tagged (PHO4, Saccharomyces cerevisiae, UniProt P07270, residues 1-312)
Notes: whole 60-bp probe, lowest competitor level
Construct (chain): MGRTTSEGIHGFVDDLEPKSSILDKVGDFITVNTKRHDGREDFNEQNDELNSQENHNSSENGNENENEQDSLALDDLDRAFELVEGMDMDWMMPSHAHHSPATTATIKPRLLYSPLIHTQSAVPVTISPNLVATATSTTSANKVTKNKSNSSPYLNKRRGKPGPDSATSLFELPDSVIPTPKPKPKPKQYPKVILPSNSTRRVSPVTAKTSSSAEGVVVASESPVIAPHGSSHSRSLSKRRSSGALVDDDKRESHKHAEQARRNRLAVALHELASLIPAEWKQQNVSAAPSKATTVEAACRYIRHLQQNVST
Oligonucleotide | fluorescence intensity [a.u.]
CGGACGCTCAAACGATCCGTGACTCGGCGCCACAGGGTCTTGATTCGCTTGACGCTGCTG | 3770
AAAGCGGTAATTTGCACCGTGGGTGCAGATATCTATGTCTTGATTCGCTTGACGCTGCTG | 9420
TACAGCATATTTCGTCACGTGTGTTCGTCGAGCTGGGTCTTGATTCGCTTGACGCTGCTG | 13900
TTGGACTTTAATGGGGGCGTGGGTATGTTTGGAGACGTCTTGATTCGCTTGACGCTGCTG | 9830

Sample 2 — method: aptamer microarray, sandwich; molecule type: DNA with 2'F-ANA; medium: in vitro; tested at: 200 nM; with: Cy3 exosite-II aptamer, 400 nM; reading: higher = stronger binding
Target: Prothrombin, mature alpha-thrombin (F2, Homo sapiens, UniProt P00734)
Notes: whole 15-mer aptamer, many near background
Oligonucleotide | mean fluorescence intensity [a.u.]
GGTTGGTGTGGTTGG (2'F-ANA at 1 2 3 6 8 10 11 12 14) | 50.3
GGTTGGTGTGGTTGG (2'F-ANA at 1 3 8 9 11 13 15) | 325
GGTTGGTGTGGTTGG (2'F-ANA at 1 8 9 11) | 183
GGTTGGTGTGGTTGG (2'F-ANA at 2 3 5 6 7 8 12 13) | 169

Sample 3 — method: universal PBM; molecule type: double-stranded DNA, one strand shown; medium: in vitro; tested at: 600 nM; reading: higher = stronger binding
Target: Sal-like protein 4, full length isoform A (SALL4, Homo sapiens, UniProt Q9UJQ4, residues 1-1053)
UniProt Q9UJQ4, sequence (whole entry, looked up): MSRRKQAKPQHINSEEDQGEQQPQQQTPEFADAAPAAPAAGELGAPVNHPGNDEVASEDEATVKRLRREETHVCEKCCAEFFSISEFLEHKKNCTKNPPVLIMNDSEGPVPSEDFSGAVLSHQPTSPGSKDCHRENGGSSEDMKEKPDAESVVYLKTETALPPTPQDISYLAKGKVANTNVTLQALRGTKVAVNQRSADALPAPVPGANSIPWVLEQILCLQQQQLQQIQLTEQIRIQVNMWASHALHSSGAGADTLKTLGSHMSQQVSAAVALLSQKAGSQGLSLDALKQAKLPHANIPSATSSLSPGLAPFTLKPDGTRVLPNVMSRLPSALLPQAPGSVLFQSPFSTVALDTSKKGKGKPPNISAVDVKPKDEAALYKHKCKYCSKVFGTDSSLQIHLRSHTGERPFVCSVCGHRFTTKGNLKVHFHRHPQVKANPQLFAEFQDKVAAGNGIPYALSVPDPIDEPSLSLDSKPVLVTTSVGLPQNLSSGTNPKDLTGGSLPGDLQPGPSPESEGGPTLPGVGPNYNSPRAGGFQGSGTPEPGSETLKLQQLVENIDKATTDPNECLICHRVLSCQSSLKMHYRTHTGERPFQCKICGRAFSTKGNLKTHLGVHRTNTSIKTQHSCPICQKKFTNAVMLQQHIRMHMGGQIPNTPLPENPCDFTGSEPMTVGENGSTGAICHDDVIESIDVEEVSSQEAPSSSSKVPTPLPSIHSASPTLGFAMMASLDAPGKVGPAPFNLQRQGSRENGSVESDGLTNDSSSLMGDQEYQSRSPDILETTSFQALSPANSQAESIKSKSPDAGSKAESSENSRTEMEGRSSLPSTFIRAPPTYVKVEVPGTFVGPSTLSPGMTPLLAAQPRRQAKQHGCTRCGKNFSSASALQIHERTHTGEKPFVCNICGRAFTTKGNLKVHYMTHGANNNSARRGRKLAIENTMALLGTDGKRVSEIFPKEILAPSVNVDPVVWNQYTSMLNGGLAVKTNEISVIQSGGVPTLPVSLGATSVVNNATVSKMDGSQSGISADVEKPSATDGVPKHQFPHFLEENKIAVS
Notes: 8-mer, flanks averaged, mean of replicates
Oligonucleotide | E-score
TGTGGAAA | 0.255
TACAGTCA | 0.16
AAAGAATG | 0.304
CCGCGTTA | -0.169

Further values, each from its own experiment
Molecule | target | assay | system | conditions | how to read | quantity | result
PhoQ, residues 284 288 289 292 302 303 TLSLKA | PhoP, residues 12 14 15 18 19 VHSCL (Escherichia coli, UniProt P23836) | Sort-seq, measured: YFP reporter | E. coli | PhoQ-PhoP variant library, with: 10 µM Mg2+ | relative to: high Mg2+ state, higher = stronger signaling | fold induction | 4.69

A few entries again (sample 2):
Oligonucleotide | mean fluorescence intensity [a.u.]
GGTTGGTGTGGTTGG (2'F-ANA at 1 3 8 9 11 13 15) | 325
GGTTGGTGTGGTTGG (2'F-ANA at 1 8 9 11) | 183
